Measured values gathered from unrelated publications.
Protocols differ between the studies behind these lines. “And” joins repeats or separate records; there may be more than shown. ± marks the error that the study gave.
GLP1R: Glucagon-like peptide 1 receptor (GLP1R, Homo sapiens, UniProt P43220)
SRPK3: SRSF protein kinase 3 (SRPK3, Homo sapiens, UniProt Q9UPE1)
UniProt Q9UPE1, sequence (whole entry, looked up): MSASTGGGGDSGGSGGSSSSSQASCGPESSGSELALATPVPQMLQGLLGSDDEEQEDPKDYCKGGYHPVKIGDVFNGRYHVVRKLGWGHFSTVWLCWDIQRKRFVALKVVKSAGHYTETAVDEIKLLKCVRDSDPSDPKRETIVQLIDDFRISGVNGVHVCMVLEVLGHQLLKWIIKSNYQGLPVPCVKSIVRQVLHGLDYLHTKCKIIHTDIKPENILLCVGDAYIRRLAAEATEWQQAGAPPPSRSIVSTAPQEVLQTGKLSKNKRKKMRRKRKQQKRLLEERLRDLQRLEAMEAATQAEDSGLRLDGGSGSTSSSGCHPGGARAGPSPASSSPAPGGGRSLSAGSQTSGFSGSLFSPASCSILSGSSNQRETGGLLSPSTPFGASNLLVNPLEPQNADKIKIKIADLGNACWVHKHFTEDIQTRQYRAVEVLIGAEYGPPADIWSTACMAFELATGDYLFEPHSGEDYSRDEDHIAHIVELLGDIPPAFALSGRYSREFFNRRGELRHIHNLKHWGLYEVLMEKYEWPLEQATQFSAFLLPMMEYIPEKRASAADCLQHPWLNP
T1: riboswitch RNA yjdF aptamer (Bacillus subtilis); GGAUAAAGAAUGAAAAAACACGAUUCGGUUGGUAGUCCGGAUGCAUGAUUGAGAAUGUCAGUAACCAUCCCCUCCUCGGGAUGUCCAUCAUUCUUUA
UniProt P02769, sequence (whole entry, unmodified, looked up): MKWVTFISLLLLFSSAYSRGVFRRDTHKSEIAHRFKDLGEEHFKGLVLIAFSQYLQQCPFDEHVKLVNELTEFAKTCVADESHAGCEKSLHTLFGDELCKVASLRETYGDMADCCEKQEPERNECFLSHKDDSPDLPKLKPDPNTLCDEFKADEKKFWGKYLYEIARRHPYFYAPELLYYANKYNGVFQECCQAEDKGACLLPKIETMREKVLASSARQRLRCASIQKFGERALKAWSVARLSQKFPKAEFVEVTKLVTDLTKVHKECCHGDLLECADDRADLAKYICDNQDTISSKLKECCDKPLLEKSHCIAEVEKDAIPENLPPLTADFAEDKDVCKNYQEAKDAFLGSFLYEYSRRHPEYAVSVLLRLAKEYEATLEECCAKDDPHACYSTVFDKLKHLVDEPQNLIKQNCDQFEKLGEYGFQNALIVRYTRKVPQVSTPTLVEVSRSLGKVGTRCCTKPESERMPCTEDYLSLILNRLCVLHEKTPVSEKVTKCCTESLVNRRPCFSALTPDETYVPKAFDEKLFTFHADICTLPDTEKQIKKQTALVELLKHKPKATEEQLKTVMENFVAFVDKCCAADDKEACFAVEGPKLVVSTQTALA
UniProt P11388, sequence (whole entry, looked up): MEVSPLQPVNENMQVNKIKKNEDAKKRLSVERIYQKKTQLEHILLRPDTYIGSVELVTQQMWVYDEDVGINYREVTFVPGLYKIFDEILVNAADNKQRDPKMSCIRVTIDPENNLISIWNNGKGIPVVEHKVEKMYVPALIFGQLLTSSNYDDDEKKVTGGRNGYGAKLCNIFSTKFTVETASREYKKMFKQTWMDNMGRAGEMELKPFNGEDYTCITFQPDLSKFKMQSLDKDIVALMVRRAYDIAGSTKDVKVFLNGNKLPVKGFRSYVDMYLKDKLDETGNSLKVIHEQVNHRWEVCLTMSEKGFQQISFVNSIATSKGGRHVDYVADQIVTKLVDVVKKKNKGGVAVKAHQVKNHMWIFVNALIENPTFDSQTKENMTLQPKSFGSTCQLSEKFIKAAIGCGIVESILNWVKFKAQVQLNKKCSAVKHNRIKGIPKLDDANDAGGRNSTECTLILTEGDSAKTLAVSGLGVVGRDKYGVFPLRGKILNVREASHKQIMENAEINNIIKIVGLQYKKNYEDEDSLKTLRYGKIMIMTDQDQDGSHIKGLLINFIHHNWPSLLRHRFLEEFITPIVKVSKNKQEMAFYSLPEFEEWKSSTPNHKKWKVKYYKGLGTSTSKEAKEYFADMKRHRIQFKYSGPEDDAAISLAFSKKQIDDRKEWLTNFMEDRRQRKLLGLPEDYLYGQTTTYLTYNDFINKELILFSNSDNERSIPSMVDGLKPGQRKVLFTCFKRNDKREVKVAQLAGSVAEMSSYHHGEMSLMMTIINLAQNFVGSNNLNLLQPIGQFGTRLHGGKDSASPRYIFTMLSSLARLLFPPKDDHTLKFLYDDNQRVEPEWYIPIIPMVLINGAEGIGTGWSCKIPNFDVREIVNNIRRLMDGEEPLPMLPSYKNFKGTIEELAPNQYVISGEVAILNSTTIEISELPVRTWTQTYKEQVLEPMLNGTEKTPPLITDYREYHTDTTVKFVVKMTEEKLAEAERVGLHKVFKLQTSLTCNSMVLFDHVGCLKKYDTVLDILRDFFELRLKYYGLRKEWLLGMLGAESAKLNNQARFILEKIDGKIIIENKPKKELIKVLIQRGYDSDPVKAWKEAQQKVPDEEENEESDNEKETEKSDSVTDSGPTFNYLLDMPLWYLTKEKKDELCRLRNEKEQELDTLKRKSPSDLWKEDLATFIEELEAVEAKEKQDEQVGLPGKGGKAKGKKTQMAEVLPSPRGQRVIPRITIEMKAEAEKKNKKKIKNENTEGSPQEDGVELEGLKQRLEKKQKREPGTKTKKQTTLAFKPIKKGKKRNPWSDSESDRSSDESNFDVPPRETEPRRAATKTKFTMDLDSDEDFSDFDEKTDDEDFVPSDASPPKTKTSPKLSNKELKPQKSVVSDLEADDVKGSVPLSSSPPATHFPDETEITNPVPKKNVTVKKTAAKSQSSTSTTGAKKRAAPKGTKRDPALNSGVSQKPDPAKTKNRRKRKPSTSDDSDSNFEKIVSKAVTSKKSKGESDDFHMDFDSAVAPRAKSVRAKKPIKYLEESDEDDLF
UniProt P43003, sequence (whole entry, looked up): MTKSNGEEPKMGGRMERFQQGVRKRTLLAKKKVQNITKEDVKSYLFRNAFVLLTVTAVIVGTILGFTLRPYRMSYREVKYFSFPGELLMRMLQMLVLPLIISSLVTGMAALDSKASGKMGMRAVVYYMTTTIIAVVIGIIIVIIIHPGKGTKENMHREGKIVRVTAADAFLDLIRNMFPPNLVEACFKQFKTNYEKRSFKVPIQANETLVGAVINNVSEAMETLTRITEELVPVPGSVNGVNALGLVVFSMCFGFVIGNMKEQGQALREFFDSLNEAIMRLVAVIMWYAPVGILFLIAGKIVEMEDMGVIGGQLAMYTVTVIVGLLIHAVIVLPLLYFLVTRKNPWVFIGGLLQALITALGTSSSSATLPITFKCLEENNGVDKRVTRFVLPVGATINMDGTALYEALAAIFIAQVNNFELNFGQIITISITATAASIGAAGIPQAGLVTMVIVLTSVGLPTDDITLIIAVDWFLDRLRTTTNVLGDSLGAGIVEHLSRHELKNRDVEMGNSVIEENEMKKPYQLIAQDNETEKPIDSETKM
UniProt Q96D96, sequence (whole entry, unmodified, looked up): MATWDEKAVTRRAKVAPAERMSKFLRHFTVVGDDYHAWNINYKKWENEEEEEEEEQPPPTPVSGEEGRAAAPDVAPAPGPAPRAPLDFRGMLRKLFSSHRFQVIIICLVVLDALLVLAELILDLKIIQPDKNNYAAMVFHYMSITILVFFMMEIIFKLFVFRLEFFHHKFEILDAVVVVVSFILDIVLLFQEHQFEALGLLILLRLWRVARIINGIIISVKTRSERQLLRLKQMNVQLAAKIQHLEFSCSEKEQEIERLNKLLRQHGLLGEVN
UniProt Q13263, sequence (whole entry, looked up): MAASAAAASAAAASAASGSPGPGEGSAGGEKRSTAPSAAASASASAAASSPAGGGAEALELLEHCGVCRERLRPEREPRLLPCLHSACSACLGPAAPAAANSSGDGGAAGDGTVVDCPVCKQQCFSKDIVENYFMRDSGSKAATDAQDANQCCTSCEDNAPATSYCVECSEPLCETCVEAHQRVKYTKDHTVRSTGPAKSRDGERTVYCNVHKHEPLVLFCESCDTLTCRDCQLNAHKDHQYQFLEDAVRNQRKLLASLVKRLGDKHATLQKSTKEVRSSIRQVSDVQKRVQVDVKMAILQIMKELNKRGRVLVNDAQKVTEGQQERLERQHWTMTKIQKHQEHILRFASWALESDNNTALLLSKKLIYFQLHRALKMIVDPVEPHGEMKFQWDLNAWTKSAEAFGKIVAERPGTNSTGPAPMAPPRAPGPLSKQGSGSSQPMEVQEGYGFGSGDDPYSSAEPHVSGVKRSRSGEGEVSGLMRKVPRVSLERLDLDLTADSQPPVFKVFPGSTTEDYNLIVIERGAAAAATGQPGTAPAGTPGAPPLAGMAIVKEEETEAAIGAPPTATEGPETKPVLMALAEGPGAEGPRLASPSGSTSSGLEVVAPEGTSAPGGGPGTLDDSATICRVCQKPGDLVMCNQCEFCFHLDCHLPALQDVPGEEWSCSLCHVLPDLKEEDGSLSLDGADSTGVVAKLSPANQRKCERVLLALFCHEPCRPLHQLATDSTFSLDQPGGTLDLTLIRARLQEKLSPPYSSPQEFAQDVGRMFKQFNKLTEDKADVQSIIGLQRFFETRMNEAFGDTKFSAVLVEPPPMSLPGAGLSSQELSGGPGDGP
UniProt Q9Y3R4, sequence (whole entry, looked up): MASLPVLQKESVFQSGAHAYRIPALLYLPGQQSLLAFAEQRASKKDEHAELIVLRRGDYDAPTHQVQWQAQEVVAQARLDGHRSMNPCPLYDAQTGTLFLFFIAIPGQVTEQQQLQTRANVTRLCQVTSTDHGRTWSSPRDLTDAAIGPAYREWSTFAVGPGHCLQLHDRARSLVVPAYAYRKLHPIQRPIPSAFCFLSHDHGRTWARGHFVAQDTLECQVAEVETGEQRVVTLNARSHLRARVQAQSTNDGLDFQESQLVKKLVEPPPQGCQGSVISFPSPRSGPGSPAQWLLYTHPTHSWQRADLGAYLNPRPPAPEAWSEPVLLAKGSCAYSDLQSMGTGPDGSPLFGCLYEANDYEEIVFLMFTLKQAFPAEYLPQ
UniProt P40337, sequence (whole entry, unmodified, looked up): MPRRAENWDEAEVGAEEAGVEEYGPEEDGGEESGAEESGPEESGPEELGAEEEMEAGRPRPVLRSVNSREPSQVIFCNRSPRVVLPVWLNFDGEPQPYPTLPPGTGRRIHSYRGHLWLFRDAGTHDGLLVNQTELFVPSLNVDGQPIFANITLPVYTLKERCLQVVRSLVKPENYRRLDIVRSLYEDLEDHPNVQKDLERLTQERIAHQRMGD

| Structure (SMILES) | target or system | test | system | setting | how to read | measurement | result |
| --- | --- | --- | --- | --- | --- | --- | --- |
| NCC[C@H](O)C(=O)N[C@@H]1C[C@H](N)[C@@H](O[C@H]2O[C@H](CN)[C@@H](O)[C@H](O)[C@H]2O)[C@H](O)[C@H]1O[C@H]1O[C@H](CO)[C@@H](O)[C@H](N)[C@H]1O | Albumin (ALB, Bos taurus, UniProt P02769) | binding, van't Hoff plot, fluorescence quenching | – | pH 7.4, 283–310 K | – | ΔS° | -1050 J/mol/K |
| CC[C@@H](C)[C@@H](NC(=O)[C@@H](Cc1ccc(O)cc1)NC(=O)[C@H]1CCCN1C(=O)[C@@H](CCCNC(=N)N)NC(=O)[C@H](N)Cc1c[nH]cn1)C(=O)N[C@H](C)C(=O)N[C@H](Cc1c[nH]cn1)C(=O)N[C@H](CCCNC(=N)N)C(=O)N[C@@H](C(=O)N[C@H](Cc1ccc(O)cc1)C(=O)N[C@H](CO)C(=O)N[C@H](Cc1ccccc1)C(N)=O)C(C)C | Transferrin receptor protein 1 (Tfrc, Mus musculus, UniProt Q62351) | flow cytometry | DC2.4 | 2 h, pH 6, replicate 2, unit not given | baseline: 0 h | surface TFRC expression | 0.952 |
| O=C(COP(=O)(O)O)[C@@H](O)[C@H](O)[C@H](O)COP(=O)(O)O | Importin subunit alpha-1 (Homo sapiens, UniProt P52292) | thermal proteome profiling, refers to: KPNA2 | HepG2 cell lysate | concentration not given, 57 over 37 °C | baseline: compound over control | thermal stability ratio | 0.6 and 0.538 and 0.769 |
| O=C(NCC1CCOCC1)c1ccc([C@H]2[C@@H](F)[C@@H](F)C[C@@H](F)[C@H]2F)cc1 | – | liver microsome stability | cynomolgus liver microsomes | 1 µM | – | hepatic clearance | 8.9 mL/min/kg |
| Nc1ncnc2c1ncn2[C@@H]1O[C@H](CO[P@](=O)(O)O[P@](=O)(O)O[P@@](=O)(O)S)[C@@H](O)[C@H]1O | GUK1 (Homo sapiens, UniProt Q16774) | ITC | – | molar ratio 3.279 | – | ΔH | -0.243 kcal/mol |
| Cn1cc(-c2ccc(-c3cncc(Cl)c3N3CCC4(CCNC4=O)CC3)cc2)cn1 | COLO 205 | gene expression, microarray, refers to: IFI6 mRNA | – | concentration not given, 2 h | baseline: untreated cells | log2 fold change | 1.56 |
| CC(C(=O)Nc1ccc([C@H]2[C@@H](F)[C@@H](F)C[C@@H](F)[C@H]2F)cc1)n1cncn1 (stereo partly shown) | – | – | cryopreserved rat hepatocytes | 1 µM | – | hepatic clearance | 10 mL/min/kg |
| CC(=O)N[C@H]1[C@H]([C@H](O)[C@H](O)CO)OC(O[C@H]2[C@@H](O)[C@@H](CO)O[C@@H](Oc3ccc([N+](=O)[O-])cc3)[C@@H]2O)(C(=O)O)C[C@@H]1O (stereo partly shown) | Sialidase-2 (Homo sapiens, UniProt Q9Y3R4) | substrate | – | 10 min, pH 5.0, 37 °C | – | kcat | 0.58 ± 0.04 s⁻¹ |
| Oc1ccc(/C=C/c2cc(O)cc(O)c2)cc1 | Amyloid-beta precursor protein (APP, Homo sapiens, UniProt P05067) | fibril formation, ThT fluorescence | – | 1-fold of peptide, pH 7.4, room temperature, added: amyloid-beta 10 µM | baseline: untreated | aggregation half-time | 110 ± 6% |
| CC(=O)Nc1ccc(O)cc1 | Bromodomain-containing protein 4 (BRD4, Homo sapiens, UniProt O60885) | 19F NMR, refers to: tyrosine 118 | – | 746 µM | baseline: free protein | chemical shift change | -0.008 ppm |
| O=c1nc(SCc2cc(F)cc(C(F)(F)F)c2)nc(SCc2ccc3nc(Cl)ccc3c2)[nH]1 | DNA topoisomerase 2-alpha (TOP2A, Homo sapiens, UniProt P11388) | ATPase activity | – | 31.25 µM, added: ATP 0.5 mM | – | ATP hydrolysis rate | 1.42 µM/min and 2.03 µM/min |
| [H]/N=C(/N)NCC(=O)O | Sodium- and chloride-dependent taurine transporter (SLC6A6, Homo sapiens, UniProt P31641, Y138A) | binding, microscale thermophoresis | – | 1 mM, room temperature, added: 50 nM labelled protein | higher = more binding | normalised MST signal | -0.0457 |
| N=C(N)Nc1nc2ccccc2[nH]1 | Voltage-gated hydrogen channel 1 (HVCN1, Homo sapiens, UniProt Q96D96, F149A/F150A) | proton current, inhibitor, inside-out patch clamp | – | – | – | Hill coefficient | 0.87 ± 0.09 |
| C[C@H](CCC(C)(C)O)[C@H]1CC[C@H]2[C@@H]3CC=C4C[C@@](C)(O)CC[C@]4(C)[C@H]3CC[C@]12C | Glutamate NMDA receptor; GRIN1/GRIN2B (GRIN1/GRIN2B, Homo sapiens, UniProt Q05586+Q13224, V564A) | positive allosteric modulator, two-electrode voltage clamp | Xenopus oocytes expressing GluN2B-V564A | 10 µM, 0.02% cremophor, added: 100 µM glutamate and glycine | baseline: without compound | current response | 342 ± 25% |
| COc1cccc(-c2cc(F)ccc2[C@H]2Cc3nc(N)nc(C)c3C(=O)N2)n1 | – | radioligand, in vitro autoradiography | human and mouse tumour sections | concentration not given, added: Hsp90 inhibitor 10 µM | – | reduction of tracer binding | > 85% |
| CN1CCN(c2ccc3nc(-c4c(N)c5c(F)cccc5[nH]c4=O)[nH]c3c2)CC1 | NanoBiT HiBiT/LgBiT luciferase | inhibitor, HiBiT luminescence counterscreen | conditioned medium only | 5 µM, 24 h | baseline: vehicle | luminescence signal reduction | 2.43% |
| CC[C@H](C)[C@H](NC(=O)[C@H](Cc1ccccc1)NC(=O)[C@H](CCC(=O)O)NC(=O)[C@H](CCCNC(=N)N)NC(=O)[C@H](C)NC(=O)[C@H](C)NC(=O)[C@H](CCC(N)=O)NC(=O)[C@H](CCCCNc1c(NCCCCCN(O)C(=O)CCC(=O)NCCCCCN(O)C(=O)CCC(=O)NCCCCCN(O)C(C)=O)c(=O)c1=O)NC(=O)[C@H](CCC(=O)O)NC(=O)[C@H](CC(C)C)NC(=O)[C@H](Cc1ccc(O)cc1)NC(=O)[C@H](CO)NC(=O)[C@H](CO)NC(=O)[C@@H](NC(=O)[C@H](CC(=O)O)NC(=O)[C@H](CO)NC(=O)[C@@H](NC(=O)[C@H](Cc1ccccc1)NC(=O)[C@@H](NC(=O)CNC(=O)[C@H](CCC(=O)O)NC(=O)[C@H](C)NC(=O)CCc1cnc[nH]1)[C@@H](C)O)[C@@H](C)O)C(C)C)C(=O)N[C@@H](C)C(=O)N[C@@H](Cc1c[nH]c2ccccc12)C(=O)N[C@@H](CC(C)C)C(=O)N[C@H](C(=O)N[C@@H](CCCCNc1c(NCCCCCN(O)C(=O)CCC(=O)NCCCCCN(O)C(=O)CCC(=O)NCCCCCN(O)C(C)=O)c(=O)c1=O)C(=O)NCC(=O)N[C@@H](CCCNC(=N)N)C(=O)N[C@@H](CCCCNC(=O)COCCOCCNC(=O)COCCOCCNC(=O)CC[C@H](NC(=O)CCCCCCCCCCCCCCCCC(=O)O)C(=O)O)C(=O)O)C(C)C | GLP1R | agonist, CRE luciferase reporter | BHK cells | Zr-loaded DFO conjugate, added: 1% HSA | baseline: parent peptide | fold potency loss | 2.6 |
| CC1(C)CC2(C)OC(=O)NC2(C)c2ccccc21 (stereo not shown) | Transcription intermediary factor 1-beta, PHD-bromodomain (TRIM28, Homo sapiens, UniProt Q13263) | binding, affinity selection mass spectrometry | – | – | baseline: other proteins in batch | log fold enrichment | -0.0793 |
| Cc1cc2nc3[nH]c(=O)[nH]c(=O)c3nc2cc1C | T1, riboswitch RNA yjdF aptamer (Bacillus subtilis) | fluorescence titration | – | added: 380 nM lumichrome | – | Kd | 12 nM |
| CC[C@H](C)[C@@H]1NC(=O)[C@H](C)NC(=O)[C@H]([C@@H](C)CC)NC(=O)[C@H](CCC(N)=O)NC(=O)[C@H](C)NC(=O)[C@H](CCCNC(=N)N)NC(=O)[C@H](C(C)C)NC(=O)[C@H](CC(C)C)NC(=O)[C@H](CCC(=O)O)NC(=O)[C@H](CCCNC(=N)N)NC(=O)CNC(=O)[C@@H](NC(=O)[C@H](CC(C)C)NC(=O)[C@H](CCCCN)NC(=O)[C@@H](NC(=O)[C@@H](NC(=O)[C@H](CCC(=O)O)NC(=O)[C@H](CCC(=O)O)NC(=O)[C@H](CCSC)NC(=O)[C@H](Cc2c[nH]c3ccccc23)NC(=O)[C@H](CO)NC(=O)[C@@H](N)CC(=O)O)C(C)C)[C@@H](C)CC)CSSC[C@@H]2NC(=O)[C@@H](NC(=O)[C@H](CCCCN)NC(=O)[C@H](CC(N)=O)NC(=O)[C@H](C)NC(=O)[C@H](CC(C)C)NC(=O)[C@H](C)NC(=O)[C@H](CO)NC(=O)[C@H](Cc3ccc(O)cc3)NC(=O)[C@H](CC(C)C)NC(=O)[C@H](CCC(N)=O)NC(=O)c3ccc(-c4c5ccc(=[N+](C)C)cc-5oc5cc(N(C)C)ccc45)c(C(=O)[O-])c3)CSSC[C@H](NC(=O)CNC(=O)[C@H](C(C)C)NC(=O)[C@H](Cc3c[nH]cn3)NC2=O)C(=O)N[C@@H]([C@@H](C)O)C(=O)N[C@@H](CCCCN)C(=O)N[C@@H](CCCNC(=N)N)C(=O)N[C@@H](CO)C(=O)N[C@@H](CC(C)C)C(=O)N[C@@H](C)C(=O)N[C@@H](CCCNC(=N)N)C(=O)N[C@@H](Cc2ccccc2)C(=O)N[C@H](C(=O)O)CSSC[C@@H](C(=O)NCC(=O)N[C@@H](CCSC)C(=O)N[C@@H](CO)C(=O)N[C@H](C(=O)N[C@@H](Cc2c[nH]c3ccccc23)C(=O)N[C@@H](CO)C(=O)O)[C@@H](C)O)NC1=O | Relaxin receptor 1 (RXFP1, Homo sapiens, UniProt Q9HBX9) | binding, NanoBRET | – | added: relaxin 100 nM | – | dissociation plateau | 26.9% |
| COc1cc(-c2cncc3c2CN(C)Cc2cc(N4CCNCC4)ccc2-3)cc(OC)c1OC | SRPK3 | kinase activity | – | 1 µM, human enzyme, added: ATP 10 µM | baseline: DMSO control | remaining activity | 123% |
| CC(=O)N[C@H](C(=O)N1C[C@H](O)C[C@H]1C(=O)NCc1ccc(-c2scnc2C)cc1)C(C)(C)SCCCCCCNC(=O)C[C@@H]1N=C(c2ccc(Cl)cc2)c2c(sc(C)c2C)-n2c(C)nnc21 | BRD4/VHL, BD2; with elongins B/C (Homo sapiens, UniProt O60885+P40337, A384K/E383V/K378Q) | ITC | – | 25 °C, BRD4 BD2 mutant, ternary | – | −TΔS | -3 ± 1 kcal/mol |
| Cc1ccccc1Nc1c(-c2ccco2)nc2c(C(F)F)cccn12 | Excitatory amino acid transporter 1 (SLC1A3, Homo sapiens, UniProt P43003) | glutamate uptake, impedance | HEK293 | – | baseline: SLC1A1 over SLC1A3 | selectivity ratio | > 100 fold |
| CC[C@H](C)[C@H](NC(=O)[C@H](Cc1ccccc1)NC(=O)[C@H](CCC(=O)O)NC(=O)[C@H](CCCNC(=N)N)NC(=O)[C@H](C)NC(=O)[C@H](C)NC(=O)[C@H](CCC(N)=O)NC(=O)[C@H](CCC(=O)O)NC(=O)[C@H](CCC(=O)O)NC(=O)[C@H](CC(C)C)NC(=O)[C@H](Cc1ccc(O)cc1)NC(=O)[C@H](CO)NC(=O)[C@H](CO)NC(=O)[C@@H](NC(=O)[C@H](CC(=O)O)NC(=O)[C@H](CO)NC(=O)[C@@H](NC(=O)[C@H](Cc1ccccc1)NC(=O)[C@@H](NC(=O)CNC(=O)[C@H](CCC(=O)O)NC(=O)[C@H](C)NC(=O)CCc1cnc[nH]1)[C@@H](C)O)[C@@H](C)O)C(C)C)C(=O)N[C@@H](C)C(=O)N[C@@H](Cc1c[nH]c2ccccc12)C(=O)N[C@@H](CC(C)C)C(=O)N[C@H](C(=O)N[C@@H](CCCNC(=N)N)C(=O)NCC(=O)N[C@@H](CCCNC(=N)N)C(=O)N[C@@H](CCCCNC(=O)COCCOCCNC(=O)COCCOCCNC(=O)CC[C@H](NC(=O)CCCCCCCCCCCCCCCCC(=O)O)C(=O)O)C(=O)NCC(=O)NCC(=O)N[C@@H](CO)C(=O)N[C@@H](CCSC)C(=O)N[C@H](C(=O)N[C@@H](CCCCNc1c(NCCCCCN(O)C(=O)CCC(=O)NCCCCCN(O)C(=O)CCC(=O)NCCCCCN(O)C(C)=O)c(=O)c1=O)C(=O)O)C(C)C)C(C)C | GLP1R | agonist, CRE luciferase reporter | BHK cells | Zr-loaded DFO conjugate, added: 0% HSA | baseline: parent peptide | fold potency loss | 1.4 |
| N#Cc1ccc(NC(=O)Nc2ccccc2)cc1 | SRPK3 | kinase activity, Z'-LYTE | – | – | – | Hill slope | 1.09 |

Excerpt of the above:
| Structure (SMILES) | target or system | test | system | setting | how to read | measurement | result |
| --- | --- | --- | --- | --- | --- | --- | --- |
| CC(=O)Nc1ccc(O)cc1 | Bromodomain-containing protein 4 (BRD4, Homo sapiens, UniProt O60885) | 19F NMR, refers to: tyrosine 118 | – | 746 µM | baseline: free protein | chemical shift change | -0.008 ppm |
| N=C(N)Nc1nc2ccccc2[nH]1 | Voltage-gated hydrogen channel 1 (HVCN1, Homo sapiens, UniProt Q96D96, F149A/F150A) | proton current, inhibitor, inside-out patch clamp | – | – | – | Hill coefficient | 0.87 ± 0.09 |
